Published values from different studies.
Protocols differ between the studies behind these lines.

CCN(CC)CCOC(=O)c1ccc(N)cc1
remaining compound (LC-MS; BALB/c nude mouse, plasma; 2 µM, 0.25 h): 8.48%

Cc1cccc(CNC(=O)c2cn(CCNC(=O)c3ccccc3Sc3c([N+](=O)[O-])ncn3C)c3cc4c(cc3c2=O)OCO4)n1
remaining compound (LC-MS/MS; CD-1 mouse, whole blood; 1 µM, 0.5 h): 100%

NCc1cc2c(cc1F)C(=O)N(C1CCC(=O)NC1=O)C2 (centres unmarked)
remaining compound (male CD-1 mouse, whole blood; 3 h): > 95%

CC[C@H](C)[C@@H]1NC(=O)[C@@](C)(NC(=O)[C@H](CCCNC(=N)N)NC(=O)[C@H](CC(C)C)NC(=O)[C@@H](NC(=O)[C@H](CCC(N)=O)NC(=O)[C@H](CC(C)C)NC(C)=O)[C@@H](C)O)CCCC=CCCC[C@@](C)(C(=O)N[C@@H](CC(C)C)C(=O)N[C@@H](Cc2ccc3ccccc3c2)C(N)=O)NC(=O)[C@H](CCCNC(=N)N)NC(=O)[C@H](CCC(N)=O)NC1=O
remaining compound (LC-MS; BALB/c nude mouse, plasma; 2 µM, 0.75 h): 85.8%

C=CC(=O)Nc1cccc(-n2nc3c(=O)[nH]nc(N)c3c2-c2oc3ccc(C)cc3c2C)c1
remaining compound (BALB/c nude mouse, whole blood; 1 µM, 2 h, 37 °C): 47.8%

CC[N+]1(C)CCN(c2ccc(NC(=O)c3cccc(C)n3)cc2)CC1
remaining compound (BALB/c mouse, pooled mouse plasma; 1 µM, 60 min): 102%

CC(C)[N+](C)(CCOC(=O)C1c2ccccc2Oc2ccccc21)C(C)C
remaining compound (mouse, CD-1, both sexes, whole blood; 5 µM, 30 min): 72.2%

C/C=C/C(=O)Nc1ccc(-n2nc3c(=O)[nH]nc(N)c3c2-c2oc3ccc(C)cc3c2C)cc1
remaining compound (BALB/c nude mouse, whole blood; 1 µM, 2 h, 37 °C): 92%

Repeated from above:
NCc1cc2c(cc1F)C(=O)N(C1CCC(=O)NC1=O)C2 (centres unmarked)
remaining compound (male CD-1 mouse, whole blood; 3 h): > 95%
